Results collected from several papers.
Each numbered part is a random draw from the data of one study; scales do not carry over between parts. Substitutions count along the parent as printed.

Study 1
Target: RNA binding protein fox-1 homolog 2, RRM domain, GST-SBP tag (RBFOX2, Homo sapiens, UniProt O43251-10, residues 100-194)
Technique: RNA Bind-n-Seq
Form: RNA
Matrix: in vitro
Tested at: 365 nM
Notes: natural RNA segment, single round, ends assumed
Baseline: no-protein control
Reading: higher = stronger binding
Endpoint: RBNS enrichment (R)
Shared flanks, not repeated: GGGAGUUCUACAGUCCGACGAUC … UGGAAUUCUCGGGUGCCAA
Residues (chain): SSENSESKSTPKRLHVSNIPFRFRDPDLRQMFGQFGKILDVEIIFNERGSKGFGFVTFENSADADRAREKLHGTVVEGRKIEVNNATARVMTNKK
AGGAUGGGGAGGUAGGAAUGAGGUAUAGAAAAGAGAUAGCAUCUUCUUUGGCACAAGACUAGUGGCUUACCGCUUACCUUAGAGUUUUGUUUUUUUUUUUUCAAACCCAU: 0.892
UUGAUGUUUCUCUUCUCAACCCAGCAAUGGAGAGCAGGGCUUGCAAAGCCGUACAGAGCCUACGUGCUCUUUCCUGCAAGUGGGAGAAAACUAAUCAAUGGCACACAGGG: 0.401
GAGUAAAGUUUCUUGAUUUCAACUAUAAUGAAUACUUUGCCUGUCUAGUUAGUACUGGCAGGACAUACCCUUAACCAAAACAUGGAAUUUGGCACCUUUUCCUCACUUGU: 0.226
CAAAAUCAUGAAAUAGAAUCAUUUCUAUAAAUUGCUUCUUUAAGUUUUCUCUAAAUUUUGCCUCUAGGAAAAAAUUAAAACUAUUCAAUGACAGCUAGCUGUCACUGGUG: 0.389
AAUGUGGUCUGUACAAGGACACUGGAGGAAGUAUGUUUGCUACCUGUAAGUUCUAAAUGUGUACUCCUGAGGUUACAGUUUGGGUGUUAGGAGAAGUCUUUGUAGUCUCU: 0.929
AUUUUUCUUGGGAAUUGAAAAAAAUUGAAAUAAAUAAAAAUGCAUUGAACAUCUUGCAUUCAAAAUCUUCACUGACAAUGCAGCCUCAUUCUUUUUUUUUCUUUUGCAAU: 0.741
CUUUGAACCUGAUUGAAAUGCAAAGCAAGGGUGACUCAUUGUUAGGAGAAGUAAAGGCCACGGAAGGUAUGGUAGUUUCUGGAGUCCUAUCUGAGAACUCACAGAUUGUC: 0.929
GUUUUUCAGGUACUGGGAGCCGGGGGCUCACUGCUUGCACUGUGCUUAGGGUAGGGAUGGUAAAUAUCCUCCCUGCAUGGCUUUAUCCUCCCUCUCAUCCCAAAGCAGGU: 1.63
AAUGAUAUAAACUACUUUUAACUAAGAUGCCUAACAGGCUUUUAACACAGGUGUCCAUCUCCACUCUGUCCCCGGUCUCUGUCCCAGCUCAGGCUGCGUUCUCUAACUCA: 0.372
AGCCAGAUCUUCACCUCUUCUUCCGUACGUGACCGCAAGUCCCUGGAACGAGGCAUCUGGAGCUUCCUACUCUCCAGUUUCUCUGUGGAAAUAAAACAUGACUCUUUGUU: 0.236
GGCCCGGCGUGGGCACACAGACAGCCCGCUUUGUUCUUUCAUUUCCUCCAGCACUUUCUUUCCGCCUGAGUCCAGCCCAAGGCCUUUUAUUUUGCGCUGUGUAACUGCUG: 0.749
AAAGCGCUCAUUCAGCUUGGCAGGAUGCUCAGCAAACCCUGCUUUCUGCAUAACCACCACCAAUCCCUUUAACAAAUCAAUCUUACAACCCCCCACCCCGUUACCCUGAC: 0.51

Study 2
Target: CREBL2, bZIP domain (human)
Technique: DHFR protein complementation
Matrix: yeast
Notes: single substitutions, most at no-binding floor
Baseline: wild-type JUN-FOS pair
Reading: higher = stronger binding
Endpoint: binding fitness
Parent: JUN, bZIP domain (human); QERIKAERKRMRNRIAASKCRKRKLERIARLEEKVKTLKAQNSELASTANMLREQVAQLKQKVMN; partner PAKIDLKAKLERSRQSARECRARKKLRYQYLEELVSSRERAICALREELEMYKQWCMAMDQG
E44V: -1.51 natural log
L45H: -1.48 natural log
A49W: -1.51 natural log
E54T: -1.11 natural log
E44N: -1.54 natural log
T37H: -1.34 natural log
Q41A: -1.5 natural log
R30K: -1.24 natural log
A46T: -1.31 natural log
S47G: -1.45 natural log
E44P: -1.54 natural log
L31S: -1.52 natural log
Q41L: -1.53 natural log
I28F: -1.46 natural log
E32H: -1.43 natural log
S47F: -1.42 natural log
V35Y: -1.62 natural log
I28G: -1.46 natural log
S47T: -1.43 natural log
Q41S: -1.57 natural log
K36S: -1.43 natural log
K34Q: -1.45 natural log

Study 3
Target: CCNE1, cyclin fold, Cln2 fusion (human)
Technique: yeast growth competition, sequencing
Matrix: yeast
Notes: weak parent motif
Baseline: not given
Reading: higher = stronger binding
Endpoint: normalised enrichment score
Parent: SLBP docking peptide (human); ARYKRKLLINDFG
ARYKRKLKINDFG [L8K]: -0.553
ARYKRWLLINDFG [K6W]: 1.47
AQYKRKLLINDFG [R2Q]: 1.4
ARYKRKLLINDFD [G13D]: 0.272
ARYKRKELINDFG [L7E]: 0.0822
ARYKRYLLINDFG [K6Y]: 0.786
ARYKRKLLINWFG [D11W]: 0.706
ARYKRKLLINDFE [G13E]: 1.18
ARYKRKLEINDFG [L8E]: 0.844
ARYKRKLLINDFS [G13S]: -0.374
ARYKRKLLINLFG [D11L]: 1.66
KRYKRKLLINDFG [A1K]: -0.866
YRYKRKLLINDFG [A1Y]: 0.826
ARYKGKLLINDFG [R5G]: -0.0136
ARYKRKSLINDFG [L7S]: 0.261
ARYKRKLLINFFG [D11F]: 1.36
ARYKRKNLINDFG [L7N]: 0.976
ARYKRKLLQNDFG [I9Q]: -0.316
ARYKRKFLINDFG [L7F]: 0.57
ARYKRKLMINDFG [L8M]: 0.895
ARYKTKLLINDFG [R5T]: 0.88
ARYKRKALINDFG [L7A]: -0.337
ERYKRKLLINDFG [A1E]: 0.335
ARYKRKLLINDFC [G13C]: 1.17
ARYKRKLSINDFG [L8S]: -0.178

Study 4
Target: ABI1, truncated, D143A, DHFR fusion (Arabidopsis thaliana)
Technique: DHFR PCA, deep sequencing
Matrix: yeast
Notes: methotrexate growth selection, single substitutions
Together with: (+)-ABA 0.032 µM
Baseline: wild-type fitted maximum
Reading: higher = stronger binding
Endpoint: relative binding score
Parent: PYL1, truncated, DHFR fusion (Arabidopsis thaliana); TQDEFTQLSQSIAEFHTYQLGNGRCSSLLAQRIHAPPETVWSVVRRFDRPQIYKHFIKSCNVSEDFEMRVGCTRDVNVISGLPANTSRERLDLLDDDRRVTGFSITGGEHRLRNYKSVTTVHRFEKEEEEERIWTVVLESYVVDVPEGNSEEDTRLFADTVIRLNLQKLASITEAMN; partner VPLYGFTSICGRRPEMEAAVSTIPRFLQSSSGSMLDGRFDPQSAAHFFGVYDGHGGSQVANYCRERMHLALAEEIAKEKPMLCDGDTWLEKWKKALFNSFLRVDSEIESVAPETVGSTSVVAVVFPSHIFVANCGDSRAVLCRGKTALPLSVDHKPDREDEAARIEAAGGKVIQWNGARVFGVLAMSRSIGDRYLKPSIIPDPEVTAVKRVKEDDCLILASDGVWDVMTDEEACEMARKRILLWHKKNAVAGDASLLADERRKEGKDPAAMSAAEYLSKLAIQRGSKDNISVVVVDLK
P37I: 1.15%
R111K: 8.7%
R32I: 24.9%
L20M: 22.5%
I12H: 4.24%
S80Q: 2.58%
Q51V: -3.17%
E64K: 37.9%
E151I: 30.6%
E109N: 42.2%
G107S: 32.2%
E139C: 3.46%
S104I: 9.75%
I52C: 3.9%
R132E: 53.7%
N114F: -0.889%
Y141G: -5.81%

Study 5
Target: Centromere-binding protein 1, full length, His-tagged (CBF1, Saccharomyces cerevisiae, UniProt P17106, residues 1-351)
Chain of UniProt P17106 (whole entry, looked up): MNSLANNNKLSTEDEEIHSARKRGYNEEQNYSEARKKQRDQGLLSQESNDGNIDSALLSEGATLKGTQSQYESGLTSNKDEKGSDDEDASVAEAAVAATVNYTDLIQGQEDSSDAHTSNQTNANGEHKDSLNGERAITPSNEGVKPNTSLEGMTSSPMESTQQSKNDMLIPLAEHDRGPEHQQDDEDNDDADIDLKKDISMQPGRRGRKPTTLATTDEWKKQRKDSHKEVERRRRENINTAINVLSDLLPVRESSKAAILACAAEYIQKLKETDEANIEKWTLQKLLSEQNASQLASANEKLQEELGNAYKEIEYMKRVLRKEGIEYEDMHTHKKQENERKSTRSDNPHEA
Technique: competition protein-binding microarray
Form: double-stranded DNA, one strand shown
Matrix: in vitro
Tested at: 2 µM
Notes: whole 60-bp probe, lowest competitor level
Together with: Pho4 competitor, 0.05 µM
Reading: higher = stronger binding
Endpoint: fluorescence intensity
Shared flanks, not repeated: … GTCTTGATTCGCTTGACGCTGCTG
ATTCTTGAGAACATCCGCGTGAACCAGAGCAAACAG: 109 a.u.
AAAAGCAACTCGACCGTCGTGGGTACAATCCCCACC: 59.6 a.u.
AAATTACTAAGTTTTCACGTGTACTACCCCGTATGA: 950 a.u.
CTAACGAAGGTTTTTCACGTGGCGTACAAGCCAAGT: 579 a.u.
AGAACACCTTAGAACCACATGATGCGTACCTACTAC: 236 a.u.
GTCTTGTCTCATTGTCACAAAACTTTCCCCACTTCA: 92 a.u.
TGCGCAACAACTTGTGTGGTGGGTGTATGTCTAGAA: 70.7 a.u.
TGCGCAACAACTTGACTAGTGGGTGTATGTCTAGAA: 66.2 a.u.
CGTCCTAGTGATTGTCACATAACTTCCATGAGGAAG: 104 a.u.
ATTATCAATTGCCATCACGTGCAAACCGAAGAAATG: 6470 a.u.
TAGTTTTTCGCAAGCCATGCGTGTACTTTCGTTTTT: 83.1 a.u.
ATTTATCATTTAAATCACATGGACACCCACCGAACT: 817 a.u.
TGCGCAACAACTTGCCTGGTGGGTGTATGTCTAGAA: 60.5 a.u.
TGAACCCTTTTTGAGCATGTGTCAAAATCCAATGCA: 196 a.u.
ACTGGCAGCTCATTACTCGTGACGGAGCTTTAACAG: 201 a.u.
CGGTAAATGAATCAGCATGTGAATTTTTCTAGAAAA: 187 a.u.
CTAACGAAGGTTTTTCACGTGCCTTACAAGCCAAGT: 1280 a.u.
TAGTTGTCGTCGTTTCATGTGACGGATTCCCCTTTA: 149 a.u.
ATATTTCCACTTACCCATGTGTTTATAATCGCGGGA: 124 a.u.
CATACCCAACCTTGCTACGTGGGTGAAGATATTTGT: 72.2 a.u.
CGGGGTTAAGTTTGTCACGAAACTTGCTTGCAGCAG: 66.3 a.u.
AAGGTTGTTAACTTCCACGTTCAGGTTATTCACTAC: 79.9 a.u.
TACCAATCGATTTGTCACCTGCAAAAGGACCTGGAT: 107 a.u.
GCAAGATCTAACGGCCACGTATTCTGGGCTTGGAGA: 69.2 a.u.

Single results of other studies
PhoQ, residues 284 288 289 292 302 303 STVVAA  fold induction (PhoP, residues 12 14 15 18 19 NQCAL (Escherichia coli, UniProt P23836); Sort-seq, measured: YFP reporter; E. coli; PhoQ-PhoP variant library, together with: 10 µM Mg2+; baseline: high Mg2+ state, higher = stronger signaling): 3.78

Some of these lines once more (study 2):
Q41L: -1.53 natural log
I28F: -1.46 natural log
E32H: -1.43 natural log
S47F: -1.42 natural log
V35Y: -1.62 natural log
I28G: -1.46 natural log
S47T: -1.43 natural log
Q41S: -1.57 natural log
